# Published values collected from several papers.
# Protocols differ between the studies behind these lines. ± gives the spread as reported.
SMILES,test,test system,setting,how to read,measurement,value
C[C@]12C=CC(=O)C=C1CC[C@@H]1[C@@H]2[C@@H](O)C[C@@]2(C)[C@H]1C[C@H]1O[C@@H](C3CCCCC3)O[C@]12C(=O)CO,,"children with asthma, serum","inhaled, 160 µg ciclesonide, day 7, HFA-MDI with spacer, steady state",,AUC(0-last),0.61 ± 0.04 ng·h/mL
COc1cccc(N2CCN(C3=Nc4c(F)cccc4[C@H](CC(=O)O)N3c3cc(C(F)(F)F)ccc3OC)CC2)c1,UHPLC-MS/MS,"healthy women, plasma","intravenous infusion, 960 mg single dose, 60 min infusion, HPβCD formulation",,AUC(0-last),250000 ± 59400 ng·h/mL
CN[C@@H]1[C@H](O)[C@H](NC)[C@H]2O[C@@]3(O)C(=O)C[C@@H](C)O[C@H]3O[C@@H]2[C@H]1O,mitochondrial swelling,BALB/cByJ female mouse liver mitochondria,"30 min, added: succinate + rotenone",reference: CaCl2 maximal swelling,EC20,> 400 µM
CN[C@H](CC(C)C)C(=O)N[C@H]1C(=O)N[C@@H](CC(N)=O)C(=O)N[C@H]2C(=O)N[C@H]3C(=O)N[C@H](C(=O)N[C@H](C(=O)O)c4cc(O)cc(O)c4-c4cc3ccc4O)[C@H](O)c3ccc(c(Cl)c3)Oc3cc2cc(c3O[C@@H]2O[C@H](CO)[C@@H](O)[C@H](O)[C@H]2O[C@H]2C[C@](C)(N)[C@H](O)[C@H](C)O2)Oc2ccc(cc2Cl)[C@H]1O,microdialysis,"Danish Landrace pigs, cancellous bone","intravenous, 1000 mg, 100 min infusion, added: meropenem",,AUC(0-last),59900 ng·h/mL
CS(=O)(=O)n1cc2c(n1)CN([C@H]1CO[C@H](c3cc(F)ccc3F)[C@@H](N)C1)C2,,"healthy male human, plasma","oral, 25 mg, fasted single dose",,AUC(0-last),22.4 µM·h
O=C(Nc1nc2cccc(-c3ccc(CN4CCS(=O)(=O)CC4)cc3)n2n1)C1CC1,,"healthy subjects, plasma","oral, 100 mg single dose, 1 h after itraconazole, fasting, mean, added: itraconazole 200 mg",,AUC(0-last),3110 ng·h/mL
CC(=O)Oc1ccccc1C(=O)O,mitochondrial swelling,BALB/cByJ female mouse liver mitochondria,"30 min, added: succinate + rotenone",reference: CaCl2 maximal swelling,EC20,> 800 µM
CCOCCn1c(C2CCN(CCc3ccc(C(C)(C)C(=O)O)cc3)CC2)nc2ccccc21,,"human, mild renal insufficiency, plasma","oral, 20 mg",,AUC(0-last),937 ng·h/mL
Cc1c(Cl)c(C)[n+]([O-])c(Cl)c1-c1noc(-c2cc(O)c(O)c([N+](=O)[O-])c2)n1,,"Parkinson's disease patients, plasma","oral, 50 mg, day 14, steady state, once daily",,AUC(0-last),2020 ± 783 ng·h/mL
C[C@@H](O)[C@H]1C(=O)N2C(C(=O)O)=C(S[C@@H]3CN[C@H](C(=O)N(C)C)C3)[C@H](C)[C@H]12,microdialysis,"Danish Landrace pigs, cortical bone","intravenous, 1000 mg, 10 min infusion, added: vancomycin",,AUC(0-last),5330 ng·h/mL
CCCC[C@H](NC(C)=O)C(=O)N[C@H]1CCC(=O)NC[C@@H](C(=O)N[C@@H](Cc2c[nH]c3ccccc23)C(N)=O)NC(=O)[C@H](CCCNC(=N)N)NC(=O)[C@@H](Cc2ccccc2)NC(=O)[C@H](Cc2c[nH]cn2)NC1=O,,"beagle dog, male, plasma","subcutaneous, 8.0 mg/kg daily, day 28",,AUC(0-last),1070 ng·h/mL
CCOc1ccc(Cc2cc([C@@H]3S[C@H](CO)[C@@H](O)[C@H](O)[C@H]3O)c(OC)cc2C)cc1,,"Japanese type 2 diabetes patients, plasma","oral, 5 mg single dose, eGFR 60-89 mL/min/1.73 m^2",,AUC(0-last),2050 ± 390 ng·h/mL

# A few entries again:
SMILES,test,test system,setting,how to read,measurement,value
CCOCCn1c(C2CCN(CCc3ccc(C(C)(C)C(=O)O)cc3)CC2)nc2ccccc21,,"human, mild renal insufficiency, plasma","oral, 20 mg",,AUC(0-last),937 ng·h/mL
